Experimental data collected from several papers.
Parts stem from different laboratories: compare values within a part only. Several values in a cell are separate wells, animals, samples, runs or records.
Chain of UniProt Q15831 (whole entry, looked up): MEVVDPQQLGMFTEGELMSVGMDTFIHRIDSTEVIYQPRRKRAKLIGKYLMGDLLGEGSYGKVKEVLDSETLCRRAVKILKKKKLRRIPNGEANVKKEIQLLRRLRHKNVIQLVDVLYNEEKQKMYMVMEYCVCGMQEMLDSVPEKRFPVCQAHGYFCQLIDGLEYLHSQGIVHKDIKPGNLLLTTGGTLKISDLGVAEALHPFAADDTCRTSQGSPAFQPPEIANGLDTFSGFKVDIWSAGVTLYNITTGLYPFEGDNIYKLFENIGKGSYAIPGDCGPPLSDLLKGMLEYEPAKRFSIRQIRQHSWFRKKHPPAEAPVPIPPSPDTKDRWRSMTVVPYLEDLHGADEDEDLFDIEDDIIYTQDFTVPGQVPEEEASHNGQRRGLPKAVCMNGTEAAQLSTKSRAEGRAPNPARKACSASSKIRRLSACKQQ
Chain of UniProt P37173 (whole entry, looked up): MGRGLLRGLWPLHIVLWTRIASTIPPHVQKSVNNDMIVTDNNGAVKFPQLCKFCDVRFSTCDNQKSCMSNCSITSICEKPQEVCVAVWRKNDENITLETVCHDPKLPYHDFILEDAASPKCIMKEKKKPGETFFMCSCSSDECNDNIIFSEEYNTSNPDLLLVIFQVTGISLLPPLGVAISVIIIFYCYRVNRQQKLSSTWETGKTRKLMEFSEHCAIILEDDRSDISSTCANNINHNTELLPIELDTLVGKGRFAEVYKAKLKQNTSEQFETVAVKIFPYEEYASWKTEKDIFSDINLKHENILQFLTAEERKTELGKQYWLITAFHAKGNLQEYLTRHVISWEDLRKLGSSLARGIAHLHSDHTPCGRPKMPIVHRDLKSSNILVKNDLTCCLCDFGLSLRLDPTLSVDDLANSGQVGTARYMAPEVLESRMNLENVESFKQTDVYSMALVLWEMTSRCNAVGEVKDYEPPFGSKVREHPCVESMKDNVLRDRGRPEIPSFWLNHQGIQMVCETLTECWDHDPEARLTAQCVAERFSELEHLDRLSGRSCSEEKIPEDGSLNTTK
Chain of UniProt Q00535 (whole entry, looked up): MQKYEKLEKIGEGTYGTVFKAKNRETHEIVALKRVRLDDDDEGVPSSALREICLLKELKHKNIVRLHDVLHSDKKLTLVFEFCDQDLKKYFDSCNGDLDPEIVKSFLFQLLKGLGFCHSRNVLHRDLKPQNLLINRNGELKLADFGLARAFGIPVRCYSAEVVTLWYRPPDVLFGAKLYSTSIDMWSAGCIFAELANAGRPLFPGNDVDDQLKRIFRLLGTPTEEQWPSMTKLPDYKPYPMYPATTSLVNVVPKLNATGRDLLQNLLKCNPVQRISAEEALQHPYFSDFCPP
Chain of UniProt O94804 (whole entry, looked up): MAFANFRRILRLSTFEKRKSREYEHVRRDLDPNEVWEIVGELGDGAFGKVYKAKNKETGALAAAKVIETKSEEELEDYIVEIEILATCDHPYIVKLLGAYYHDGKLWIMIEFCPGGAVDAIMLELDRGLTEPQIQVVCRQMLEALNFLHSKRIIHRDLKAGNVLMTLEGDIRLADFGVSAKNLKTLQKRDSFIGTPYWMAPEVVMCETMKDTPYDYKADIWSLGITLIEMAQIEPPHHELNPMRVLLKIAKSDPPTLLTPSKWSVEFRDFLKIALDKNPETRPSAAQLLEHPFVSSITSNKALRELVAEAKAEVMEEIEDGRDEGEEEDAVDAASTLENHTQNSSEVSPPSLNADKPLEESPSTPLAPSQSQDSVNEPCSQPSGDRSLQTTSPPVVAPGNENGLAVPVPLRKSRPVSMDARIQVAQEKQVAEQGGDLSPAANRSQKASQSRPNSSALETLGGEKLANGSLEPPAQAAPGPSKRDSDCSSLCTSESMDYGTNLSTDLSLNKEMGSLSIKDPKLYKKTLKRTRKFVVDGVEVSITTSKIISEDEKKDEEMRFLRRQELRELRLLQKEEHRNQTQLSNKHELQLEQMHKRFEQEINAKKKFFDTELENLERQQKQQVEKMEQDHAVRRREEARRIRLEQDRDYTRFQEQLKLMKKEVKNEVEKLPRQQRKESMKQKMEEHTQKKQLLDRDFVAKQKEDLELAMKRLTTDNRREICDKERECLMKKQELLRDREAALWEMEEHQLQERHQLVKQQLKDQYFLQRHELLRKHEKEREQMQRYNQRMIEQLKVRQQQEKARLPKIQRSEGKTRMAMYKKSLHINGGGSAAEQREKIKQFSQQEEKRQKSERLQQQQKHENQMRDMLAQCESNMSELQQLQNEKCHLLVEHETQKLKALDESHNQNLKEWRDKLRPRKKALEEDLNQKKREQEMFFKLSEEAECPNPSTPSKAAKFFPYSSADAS
Chain of UniProt O14920 (whole entry, looked up): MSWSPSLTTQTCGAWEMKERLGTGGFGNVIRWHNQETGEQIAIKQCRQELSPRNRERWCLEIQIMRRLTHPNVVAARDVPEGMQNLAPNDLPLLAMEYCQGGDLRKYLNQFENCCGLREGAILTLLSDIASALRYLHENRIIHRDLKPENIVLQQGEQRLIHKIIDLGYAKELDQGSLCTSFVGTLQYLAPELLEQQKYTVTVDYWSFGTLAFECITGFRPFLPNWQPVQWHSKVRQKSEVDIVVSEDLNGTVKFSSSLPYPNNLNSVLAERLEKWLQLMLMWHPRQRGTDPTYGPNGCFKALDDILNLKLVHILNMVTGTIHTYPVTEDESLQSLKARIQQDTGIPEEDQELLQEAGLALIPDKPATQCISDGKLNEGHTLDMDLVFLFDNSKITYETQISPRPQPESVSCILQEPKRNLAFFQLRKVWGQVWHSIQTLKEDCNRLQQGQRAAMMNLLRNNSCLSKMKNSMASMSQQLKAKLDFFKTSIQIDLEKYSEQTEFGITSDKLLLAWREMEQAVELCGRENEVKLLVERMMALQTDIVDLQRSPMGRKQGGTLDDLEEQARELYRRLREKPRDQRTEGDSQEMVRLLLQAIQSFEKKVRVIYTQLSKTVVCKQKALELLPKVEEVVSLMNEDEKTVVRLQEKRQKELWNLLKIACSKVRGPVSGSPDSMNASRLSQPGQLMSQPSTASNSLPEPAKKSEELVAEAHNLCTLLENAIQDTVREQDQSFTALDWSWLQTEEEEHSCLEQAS
Chain of UniProt O95747 (whole entry, looked up): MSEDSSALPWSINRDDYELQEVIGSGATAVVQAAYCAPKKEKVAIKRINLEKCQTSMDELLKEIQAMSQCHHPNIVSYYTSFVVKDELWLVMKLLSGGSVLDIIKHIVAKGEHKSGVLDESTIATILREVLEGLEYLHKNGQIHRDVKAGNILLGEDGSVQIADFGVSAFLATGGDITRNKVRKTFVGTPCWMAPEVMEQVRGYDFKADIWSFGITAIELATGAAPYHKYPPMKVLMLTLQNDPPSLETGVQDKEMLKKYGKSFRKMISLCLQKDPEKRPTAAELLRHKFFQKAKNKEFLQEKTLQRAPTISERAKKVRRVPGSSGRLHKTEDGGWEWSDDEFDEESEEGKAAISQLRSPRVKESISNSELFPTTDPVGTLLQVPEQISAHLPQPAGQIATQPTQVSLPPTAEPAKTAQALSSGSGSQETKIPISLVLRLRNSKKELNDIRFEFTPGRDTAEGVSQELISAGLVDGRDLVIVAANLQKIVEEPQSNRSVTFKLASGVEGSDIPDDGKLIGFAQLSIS
Chain of UniProt P07948 (whole entry, looked up): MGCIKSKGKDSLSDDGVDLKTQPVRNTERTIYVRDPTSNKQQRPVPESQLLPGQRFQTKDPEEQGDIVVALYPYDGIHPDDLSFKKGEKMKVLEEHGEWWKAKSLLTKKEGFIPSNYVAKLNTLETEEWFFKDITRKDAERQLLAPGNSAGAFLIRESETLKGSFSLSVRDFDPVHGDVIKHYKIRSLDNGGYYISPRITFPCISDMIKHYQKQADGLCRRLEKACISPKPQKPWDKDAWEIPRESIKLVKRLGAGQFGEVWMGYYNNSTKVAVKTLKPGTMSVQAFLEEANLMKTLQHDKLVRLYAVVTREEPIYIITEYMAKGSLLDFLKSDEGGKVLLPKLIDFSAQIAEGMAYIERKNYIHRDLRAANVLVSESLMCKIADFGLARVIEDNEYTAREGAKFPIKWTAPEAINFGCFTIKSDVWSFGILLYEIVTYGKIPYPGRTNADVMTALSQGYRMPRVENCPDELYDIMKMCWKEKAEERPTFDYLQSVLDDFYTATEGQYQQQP
Chain of UniProt Q13976 (whole entry, looked up): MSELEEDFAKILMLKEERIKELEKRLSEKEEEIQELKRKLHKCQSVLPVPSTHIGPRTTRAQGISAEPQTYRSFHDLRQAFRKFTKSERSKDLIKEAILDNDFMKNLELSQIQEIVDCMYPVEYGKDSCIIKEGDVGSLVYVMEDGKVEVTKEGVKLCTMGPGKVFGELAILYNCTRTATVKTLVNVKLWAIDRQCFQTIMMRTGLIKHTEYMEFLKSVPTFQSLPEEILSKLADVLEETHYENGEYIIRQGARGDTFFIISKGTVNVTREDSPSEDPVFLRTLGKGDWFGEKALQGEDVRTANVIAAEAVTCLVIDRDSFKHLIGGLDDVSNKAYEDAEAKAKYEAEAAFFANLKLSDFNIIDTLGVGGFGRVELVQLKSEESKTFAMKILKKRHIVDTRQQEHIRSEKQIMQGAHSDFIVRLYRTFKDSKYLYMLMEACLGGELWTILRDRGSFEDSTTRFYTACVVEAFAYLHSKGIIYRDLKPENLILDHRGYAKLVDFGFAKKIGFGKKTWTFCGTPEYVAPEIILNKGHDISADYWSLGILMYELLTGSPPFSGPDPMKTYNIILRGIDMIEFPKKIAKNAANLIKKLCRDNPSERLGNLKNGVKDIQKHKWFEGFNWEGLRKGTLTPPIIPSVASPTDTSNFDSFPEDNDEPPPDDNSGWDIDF

Series 1 — SMILES: N#C/C(=C\c1ccc(O)c(O)c1)C(=O)NCc1ccccc1; effect on: enzyme activity; mode: inhibitor; concentration: 0.5 µM; reference: control
target | remaining activity [%]
DAPK2 (Homo sapiens, UniProt Q9UIK4) | 98.5
Protein kinase C beta type, isoform beta-I (PRKCB, Homo sapiens, UniProt P05771) | 91
CHEK2 (Homo sapiens, UniProt O96017) | 97.5
STK39 (Homo sapiens, UniProt Q9UEW8) | 99.8
MAPK9 (Homo sapiens, UniProt P45984) | 103
cGMP-dependent protein kinase 1, isoform beta (PRKG1, Homo sapiens, UniProt Q13976) | 92.6
MAP3K3 (Homo sapiens, UniProt Q99759) | 102
STK10 (Homo sapiens, UniProt O94804) | 89.6
CAMKK2 (Homo sapiens, UniProt Q96RR4) | 97.4
IKBKB (Homo sapiens, UniProt O14920) | 103
Cyclin-dependent kinase 5, with p25 (CDK5, Homo sapiens, UniProt Q00535) | 101
IKBKE (Homo sapiens, UniProt Q14164) | 105
CAMK2D (Homo sapiens, UniProt Q13557) | 104
OXSR1 (Homo sapiens, UniProt O95747) | 101
PRKACA (Homo sapiens, UniProt P17612) | 104
GRK3 (Homo sapiens, UniProt P35626) | 91.4
NEK2 (Homo sapiens, UniProt P51955) | 102
Cyclin-dependent kinase 4, with cyclin D1 (CDK4, Homo sapiens, UniProt P11802) | 109
Tyrosine-protein kinase Lyn, isoform B (LYN, Homo sapiens, UniProt P07948) | 105
DAPK1 (Homo sapiens, UniProt P53355) | 99.7
STK11 (Homo sapiens, UniProt Q15831) | 97.4
TGFBR1 (Homo sapiens, UniProt P36897) | 97.6
TGFBR2 (Homo sapiens, UniProt P37173) | 111
PRKCA (Homo sapiens, UniProt P17252) | 99.1

Series 2 — cell line: HEK293; method: CellTiter-Glo; reference: vehicle
Structure (SMILES): CC(=O)N1CCN(c2nc(OC[C@@H]3CCCN3C)nc3c2CCN(c2cccc4cccc(Cl)c24)C3)C[C@@H]1CC#N
concentration | viability
2.5 µM | 49.9% and 40.1% and 43.5%
10 µM | 13.1% and 20.7% and 17.1%
5 µM | 24.5% and 29.8% and 28.9%
40 µM | 0.01%
156 nM | 108% and 91.9% and 103%

Series 3 — host: mouse; medium: microsomes or S9; concentration: 2 µM; time: 0.5 h
SMILES | remaining compound [%]
CCCN(CC(=O)N(C)C)C(=O)CS(=O)(=O)N1CCC(C)CC1 | 15.2
COCC(C)N(Cc1cc(OC)cc(OC)c1)C(=O)CCCC(C)=O (centres unmarked) | 7.77
CCCN(CC(=O)OC(C)(C)C)C(=O)Cc1c(C)[nH]c2ccnn2c1=O | 91.8
Cn1ncc(N2CC(O)CC2C2CCCCC2)c(Br)c1=O (centres unmarked) | 30.1
O=C1Nc2ccccc2Oc2cc(Oc3cccc4cccnc34)c(S(=O)(=O)N3CCOCC3)cc21 | 2.53
Cc1cn[nH]c1C1(C)CCCN(S(=O)(=O)c2cnn(C)c2)C1 (centres unmarked) | 33.8
COc1cc2c(Br)c(O)c(Br)cc2cc1Cc1ccccc1 | 75.4
Cc1nc(O)[nH]c(=O)c1S(=O)(=O)Nc1ccccc1C(=O)NCCc1ccccc1 | 45.7
CN(C(=O)c1ccc2cc[nH]c2c1)C1CCc2nn(C)c(=O)n2CC1 (centres unmarked) | > 100
Cc1ccc(C(=O)/N=c2\c(C)cccn2C(=O)c2ccc(C)o2)o1 | 0.0767
Cc1c(Cl)cccc1-c1ccc(CNCCN(C)C)o1 | 1.8
Brc1ccc(OCCn2cc(/C=N/n3cnnc3)c3ccccc32)cc1 | 44.2
O=S(=O)(c1ccc(Cl)s1)N1CCNCC1 | 77.5
O=C(NC1CCN(CCc2ccc(F)cc2)CC1)c1cc2ccccc2s1 | 19.5
CN1CCN(c2ccc3[nH]c(-c4ccc5[nH]c(-c6ccc(O)cc6)nc5c4)nc3c2)CC1 | 44.3
O=C(c1ccc(Cl)s1)N1CCCn2nc(-c3ccncc3)cc2C1 | 39
CC(=O)Nc1ccc(Nc2ncnc3c2cnn3-c2cccc(C)c2)cc1 | 56.3

Series 4 — cell line: normal-adjacent organoid sample F; method: CellTiter-Glo; concentration: 0.1 µM; setting: replicate mean; reference: DMSO
Compound | viability
CS(=O)(=O)NCC[C@H](NC(=O)c1cncc2c1cnn2-c1ccc(F)cc1)c1ccnc(S(C)(=O)=O)c1 | 149%
CCCOc1ccc([C@@H]2[C@@H](C(=O)O)[C@H](c3ccc4c(c3)OCO4)CN2CC(=O)Nc2c(CC)cccc2CC)cc1 | 107%
N#Cc1ccc(Nc2ccc3[nH]c(=O)[nH]c3c2)c(Cl)c1 | 113%
CN1C(=O)[C@@H](N2CCc3c(nn(Cc4ccccc4)c3Br)C2=O)COc2ccccc21 | 156%
O=C(c1ccc(F)cc1)N1CC(COc2ccc(Br)cc2)(C(=O)O)C1 | 104%
COc1cccc(CNC(=O)c2nc3scc(COCc4ccc(C(=O)O)cc4)c3c(=O)[nH]2)c1 | 111%
CC(C)CC(=O)N1CCc2nc(-c3ccc(Br)cc3)nc(N(C)Cc3ccccc3)c2C1 | 116%
Cc1c(NC(=O)c2cc(C(N)=O)nc3cc(F)ccc23)c(C(F)(F)F)nn1Cc1ccc(C(C)(C)C)cc1 | 112%
CC(C)(C)OC(=O)N1CCCC1CNC1CCC(c2cc(F)ccc2F)(S(=O)(=O)c2ccc(Cl)cc2)CC1 (centres unmarked) | 91.1%
CS(=O)(=O)N1CCCC(NC(=O)[C@H](CCC2CCCCC2)NC(=O)c2ccc(CNC(=O)c3cnc4ccccn34)cc2)C1 (some centres unmarked) | 131%
O=C(NCc1ncc(C(F)(F)F)cc1Cl)c1ccc2c(c1)C1(CCS(=O)(=O)CC1)[C@H](C1CC1)N2S(=O)(=O)c1ccc(F)cc1 | 104%
Nc1cnc(N2CCc3cc(S(=O)(=O)Nc4c(F)cc(Cl)cc4F)cc(N4CCCC4=O)c32)nc1 | 96.5%
Cc1cc(Nc2nccc(C)n2)cc(-c2cnc([C@@]3(O)CC[C@H](C(=O)O)C(C)(C)C3)s2)c1 | 107%
COc1ccc2cc(OCC3(C(=O)O)CN(C(=O)c4ccc(F)cc4)C3)ccc2c1 | 136%
O=C(Nc1ccc(Oc2ccc(F)cc2)cc1)N1CCc2ncccc2[C@H]1c1ccc(F)cc1 | 99%
CN1C(=O)[C@@H](N2CCc3cn(Cc4ccccc4)nc3C2=O)COc2ccccc21 | 142%
O=C(Nc1ccc(-n2nc(-c3cccnc3)cc2C(F)(F)F)cn1)c1ccc(-c2ccccc2)c(F)c1 | 102%
C[C@@H]1CN(c2cc(-c3n[nH]c4ccc(OC5(C)CC5)cc34)ncn2)C[C@H](C)O1 | 110%
CCS(=O)(=O)c1cc2cc(C[C@@](O)(CC(C)(C)c3ccc(F)cc3C(N)=O)C(F)(F)F)[nH]c2cn1 | 107%
COc1cc(N[C@@H]2CCCC[C@]2(O)C(F)(F)F)ccc1F | 102%
Cc1cc(C)c(-n2ccn3nc(-c4cccnc4)cc23)cc1NC(=O)c1cc(C#N)cc(S(F)(F)(F)(F)F)c1 | 97.9%
CN(C)C(=O)Cn1cc(-c2nc([C@@](C)(c3ccc(-c4cnc(N)nc4)cc3)C3CC3)no2)cn1 | 104%

Excerpt of the above (series 4):
Compound | viability
C[C@@H]1CN(c2cc(-c3n[nH]c4ccc(OC5(C)CC5)cc34)ncn2)C[C@H](C)O1 | 110%
CC(C)CC(=O)N1CCc2nc(-c3ccc(Br)cc3)nc(N(C)Cc3ccccc3)c2C1 | 116%
Cc1cc(C)c(-n2ccn3nc(-c4cccnc4)cc23)cc1NC(=O)c1cc(C#N)cc(S(F)(F)(F)(F)F)c1 | 97.9%
O=C(Nc1ccc(-n2nc(-c3cccnc3)cc2C(F)(F)F)cn1)c1ccc(-c2ccccc2)c(F)c1 | 102%
COc1ccc2cc(OCC3(C(=O)O)CN(C(=O)c4ccc(F)cc4)C3)ccc2c1 | 136%
O=C(NCc1ncc(C(F)(F)F)cc1Cl)c1ccc2c(c1)C1(CCS(=O)(=O)CC1)[C@H](C1CC1)N2S(=O)(=O)c1ccc(F)cc1 | 104%
CN1C(=O)[C@@H](N2CCc3c(nn(Cc4ccccc4)c3Br)C2=O)COc2ccccc21 | 156%
